Results from different studies.
Compare with care: the assays were run in different laboratories. ≈ marks a conversion by molar mass, not a printed value.

SMILES	organism	assay	system	conditions	scale	endpoint	result
COc1ccc(Br)cc1/C=N/NC(=O)Cn1ccc(=O)c2ccccc21	Tobacco mosaic virus	viral infectivity, in vivo plant	–	100 µg/mL	–	inactivation activity	0%
CCC(CC)C(=O)O[C@H]1[C@H](C)[C@H](O)[C@H](C)[C@@H](O)[C@@H](C)/C=C/C=C(/C)C(=O)NC2=C3NC4(CCN(CC(C)C)CC4)N=C3c3c(c(O)c(C)c4c3C(=O)[C@@](C)(O/C=C/[C@H](OC)[C@H]1C)O4)C2=O	Mycobacteroides abscessus	–	ATCC 19977	–	relative to: wild type over arr deletion	MIC ratio	23.5
CC(=O)OC[C@H]1O[C@@H]([Se][Se][C@@H]2O[C@H](COC(C)=O)[C@@H](OC(C)=O)[C@H](OC(C)=O)[C@H]2OC(C)=O)[C@H](OC(C)=O)[C@@H](OC(C)=O)[C@@H]1OC(C)=O	Trypanosoma brucei	parasite growth, flow cytometry	–	5 µM, 24 h	–	viability	2.7%
NNC(=O)/C=C/c1ccc(N)cc1	Aedes aegypti	larval mortality	–	48 h, larva	–	LC50	169 µg/mL (≈ 954 µM)
CC[C@@H](C)[C@@H](NC(=O)[C@@H](C)NC(=O)[C@@H](CCCCN)NC(=O)[C@@H](CC(C)C)NC(=O)[C@@H](C)NC(=O)[C@H](NC(=O)[C@@H](Cc1c[nH]cn1)NC(=O)[C@@H](CC(C)C)NC(=O)[C@H](NC(=O)[C@H](NC(=O)[C@@H](CCCCN)NC(=O)[C@@H](CCCCN)NC(=O)[C@@H](C)NC(=O)[C@@H](CO)NC(=O)[C@@H](CCCCN)NC(=O)[C@@H](Cc1ccccc1)NC(=O)[C@H](NC(=O)[C@@H](CCCCN)NC(=O)[C@@H](CC(C)C)NC(=O)[C@@H](Cc1ccccc1)NC(=O)[C@@H](CO)NC(=O)[C@@H](CCCCN)NC(=O)[C@@H](Cc1c[nH]c2ccccc12)NC(=O)[C@@H](CCCCN)NC(C)=O)[C@H](C)O)[C@H](C)O)C(C)C)[C@H](C)O)C(=O)N[C@H](CO)C(=O)N[C@H](CO)C(N)=O	Rhizopus microsporus	–	clinical isolate	48 h, 30 °C	–	MIC90	12.5 µg/mL (≈ 4.18 µM)
CCCCCCCCCC(=O)OCC1OC(n2cc(C)c(=O)[nH]c2=O)CC1N(C)C (centres unmarked)	Sindbis virus	viral replication	Vero	–	–	EC50	> 230 nM
CC[C@H](C)[C@H](NC(=O)[C@H](CCCCN)NC(=O)[C@H](CCCCN)NC(=O)[C@H](CC(C)C)NC(=O)[C@H](CCCCN)NC(=O)[C@H](CCC(=O)O)NC(=O)[C@H](CCCCN)NC(=O)[C@@H](NC(=O)[C@H](CCCCN)NC(=O)[C@H](CC(N)=O)NC(=O)[C@H](CCCNC(=N)N)NC(=O)[C@H](Cc1ccccc1)NC(=O)[C@H](CCCCN)NC(=O)[C@H](CCCNC(=N)N)NC(=O)[C@H](CC(C)C)NC(=O)[C@H](CCCNC(=N)N)NC(=O)[C@H](CCCCN)NC(=O)[C@H](CCCNC(=N)N)NC(=O)[C@H](CC(C)C)NC(=O)CN)[C@@H](C)CC)C(=O)NCC(=O)N[C@@H](CCC(N)=O)C(=O)N[C@@H](CCCCN)C(=O)N[C@H](C(=O)N[C@@H](CCC(N)=O)C(=O)NCC(=O)N[C@@H](Cc1ccccc1)C(=O)N[C@H](C(=O)N1CCC[C@H]1C(=O)N[C@@H](CCCCN)C(=O)N[C@@H](CC(C)C)C(=O)N[C@@H](C)C(=O)N1CCC[C@H]1C(=O)N[C@@H](CCCNC(=N)N)C(=O)N[C@H](C(=O)N[C@@H](CC(=O)O)C(=O)N[C@@H](Cc1ccc(O)cc1)C(=O)O)[C@@H](C)O)C(C)C)[C@@H](C)CC	Streptococcus mutans	inhibition zone	ATCC 1.2499	LB agar, overnight	–	lethal concentration	1.67 µM
CC[C@@H](C)[C@@H](NC(=O)[C@@H](C)NC(=O)[C@@H](CCCCN)NC(=O)[C@@H](CC(C)C)NC(=O)[C@@H](C)NC(=O)[C@H](NC(=O)[C@@H](CCCCN)NC(=O)[C@@H](CC(C)C)NC(=O)[C@H](NC(=O)[C@@H](CCCCN)NC(=O)[C@@H](CCCCN)NC(=O)[C@@H](CCCCN)NC(=O)[C@@H](C)NC(=O)[C@@H](CCCCN)NC(=O)[C@@H](CO)NC(=O)[C@@H](Cc1ccccc1)NC(=O)[C@H](NC(=O)[C@@H](CCCCN)NC(=O)[C@@H](CC(C)C)NC(=O)[C@@H](Cc1ccccc1)NC(=O)[C@@H](CO)NC(=O)[C@@H](CCCCN)NC(=O)[C@@H](Cc1c[nH]c2ccccc12)NC(=O)[C@@H](CCCCN)NC(C)=O)[C@H](C)O)C(C)C)[C@H](C)O)C(=O)N[C@H](CO)C(=O)N[C@H](CCCCN)C(N)=O	Acinetobacter baumannii	–	11 isolates	–	relative to: HC50 over geometric mean MIC	therapeutic index	424
